Assay results gathered from unrelated publications.
Parts stem from different laboratories: compare values within a part only. Several values in a cell are separate wells, animals, samples, runs or records. Substitutions count along the parent as printed.
Chain of UniProt P28335 (whole entry, looked up): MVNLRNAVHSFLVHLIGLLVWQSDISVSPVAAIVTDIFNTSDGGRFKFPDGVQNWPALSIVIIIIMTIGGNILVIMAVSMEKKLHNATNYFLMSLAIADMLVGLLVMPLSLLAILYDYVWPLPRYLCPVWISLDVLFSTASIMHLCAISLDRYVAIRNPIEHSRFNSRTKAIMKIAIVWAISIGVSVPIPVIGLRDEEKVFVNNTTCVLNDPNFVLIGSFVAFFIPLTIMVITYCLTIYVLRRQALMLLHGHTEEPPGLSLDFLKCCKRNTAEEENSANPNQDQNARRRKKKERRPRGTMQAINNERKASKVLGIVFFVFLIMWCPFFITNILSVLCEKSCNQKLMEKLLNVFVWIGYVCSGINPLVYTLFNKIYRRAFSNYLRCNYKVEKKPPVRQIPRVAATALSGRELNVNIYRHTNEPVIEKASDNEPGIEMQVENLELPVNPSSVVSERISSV

Block 1
Target: CCNE1, cyclin fold, Cln2 fusion (human)
Technique: yeast growth competition, sequencing
Sample: yeast
Setting: strong parent motif
Baseline: not given
Reading: higher = stronger binding
Parent: viral docking peptide; KKVKRRLFETREL
`L7A`: “normalised enrichment score” 0.925.
Under “normalised enrichment score”, `L13A` is recorded as 5.65.
For `R5K`, “normalised enrichment score” read 1.1.
`K1A` — result for “normalised enrichment score”: 6.07.
`F8L`: “normalised enrichment score” 0.375.
`E9A`: “normalised enrichment score” 3.7.
`E12A` — result for “normalised enrichment score”: 2.75.

Single results of other studies
ADRB1: Beta-1 adrenergic receptor (ADRB1, Homo sapiens, UniProt P08588)
Chain of UniProt P08588 (whole entry, looked up): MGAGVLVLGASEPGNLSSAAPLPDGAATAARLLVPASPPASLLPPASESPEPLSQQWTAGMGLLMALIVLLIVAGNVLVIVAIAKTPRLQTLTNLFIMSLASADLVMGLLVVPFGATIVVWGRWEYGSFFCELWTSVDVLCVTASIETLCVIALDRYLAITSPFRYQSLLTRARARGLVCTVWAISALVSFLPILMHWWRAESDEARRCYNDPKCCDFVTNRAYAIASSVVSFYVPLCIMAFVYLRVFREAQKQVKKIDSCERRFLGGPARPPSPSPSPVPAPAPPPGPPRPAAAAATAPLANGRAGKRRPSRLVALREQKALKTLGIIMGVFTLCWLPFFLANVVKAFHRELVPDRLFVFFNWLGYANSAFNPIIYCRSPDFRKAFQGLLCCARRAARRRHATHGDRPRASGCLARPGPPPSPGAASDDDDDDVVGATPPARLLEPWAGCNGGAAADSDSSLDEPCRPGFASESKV
`COc1cc(C(=O)N2CCC(N3CCN(C)CC3)CC2)ccc1Nc1ncc2c(n1)N(C)c1ccccc1C(=O)N2C` gave an inhibition of 8.3% (human PBMC; probe labeling, inhibitor, KiNativ profiling, refers to: YAAVkIHQLNK; cell lysate; concentration not given, LYS1 site, together with: ATP acyl-phosphate probe 0.1 µM).
With `CCOc1cc(=O)n2c(c1C(=O)N1CCC3(CC1)OCCO3)CCCCC2` the remaining compound was 69.7% (mouse, microsomes or S9; 2 µM, 0.5 h).
The IC50 of `CN[C@@H](C)[C@H](O)c1ccccc1` is reported as ≥ 100 µM (ADRB1; antagonist).
`CCC1C(c2ccccc2)NC(c2ccccc2)CC1(O)c1ccc(F)cc1` (centres unmarked) has a remaining compound of 74.5% (mouse, microsomes or S9; 2 µM, 0.5 h).
With `COc1ccccc1N1CCN(Cc2ccc(C#N)cc2)CC1` the IC50 was ≥ 100 µM (ADRB1; antagonist).
With `O=C1CCC(N2Cc3c(ccc4c3OCC43CCN(Cc4ccccc4)CC3)C2=O)C(=O)N1` (centres unmarked) the Vss was 3.37 L/kg and 3.21 L/kg (rat Sprague Dawley male, plasma; intravenous, 1.0 mg/kg).
For `CNC(=O)c1ccc(Nc2ncc(C(F)(F)F)c(NCc3nccnc3N(C)S(C)(=O)=O)n2)cc1`, the inhibition was 16.9% (5-hydroxytryptamine receptor 2C (HTR2C, Homo sapiens, UniProt P28335); binding, radioligand binding; 10 µM).

Excerpt of the above (single results of other studies):
With `CCOc1cc(=O)n2c(c1C(=O)N1CCC3(CC1)OCCO3)CCCCC2` the remaining compound was 69.7% (mouse, microsomes or S9; 2 µM, 0.5 h).
